# Measured values pooled from the literature.
# Lines come from different studies, so protocols differ. Several values in a cell are separate wells, animals, samples, runs or records. ± marks the error that the study gave.
# CYP2A6: Cytochrome P450 2A6 (CYP2A6, Homo sapiens, UniProt P11509)
# UniProt P62577, sequence (whole entry, looked up): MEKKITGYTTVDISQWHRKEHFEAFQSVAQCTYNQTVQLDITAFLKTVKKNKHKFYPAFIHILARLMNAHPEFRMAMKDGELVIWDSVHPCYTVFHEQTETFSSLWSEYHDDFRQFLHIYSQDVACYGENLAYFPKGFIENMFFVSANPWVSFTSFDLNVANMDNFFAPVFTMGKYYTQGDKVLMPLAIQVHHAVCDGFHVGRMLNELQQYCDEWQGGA
# UniProt P11509, sequence (whole entry, looked up): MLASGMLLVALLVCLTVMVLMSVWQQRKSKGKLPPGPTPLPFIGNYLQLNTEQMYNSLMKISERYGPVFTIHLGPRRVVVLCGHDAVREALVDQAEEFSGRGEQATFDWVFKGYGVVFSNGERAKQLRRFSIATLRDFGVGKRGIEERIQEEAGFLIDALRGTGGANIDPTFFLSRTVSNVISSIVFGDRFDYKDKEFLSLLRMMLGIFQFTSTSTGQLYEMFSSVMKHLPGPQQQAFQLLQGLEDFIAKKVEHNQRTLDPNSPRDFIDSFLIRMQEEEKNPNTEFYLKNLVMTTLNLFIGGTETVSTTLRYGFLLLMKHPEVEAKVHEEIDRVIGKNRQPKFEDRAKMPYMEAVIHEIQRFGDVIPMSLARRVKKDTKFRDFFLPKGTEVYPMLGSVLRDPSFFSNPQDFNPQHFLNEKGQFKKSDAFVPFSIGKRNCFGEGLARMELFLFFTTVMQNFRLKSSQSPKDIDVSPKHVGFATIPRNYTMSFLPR
# UniProt P05067, sequence (whole entry, looked up): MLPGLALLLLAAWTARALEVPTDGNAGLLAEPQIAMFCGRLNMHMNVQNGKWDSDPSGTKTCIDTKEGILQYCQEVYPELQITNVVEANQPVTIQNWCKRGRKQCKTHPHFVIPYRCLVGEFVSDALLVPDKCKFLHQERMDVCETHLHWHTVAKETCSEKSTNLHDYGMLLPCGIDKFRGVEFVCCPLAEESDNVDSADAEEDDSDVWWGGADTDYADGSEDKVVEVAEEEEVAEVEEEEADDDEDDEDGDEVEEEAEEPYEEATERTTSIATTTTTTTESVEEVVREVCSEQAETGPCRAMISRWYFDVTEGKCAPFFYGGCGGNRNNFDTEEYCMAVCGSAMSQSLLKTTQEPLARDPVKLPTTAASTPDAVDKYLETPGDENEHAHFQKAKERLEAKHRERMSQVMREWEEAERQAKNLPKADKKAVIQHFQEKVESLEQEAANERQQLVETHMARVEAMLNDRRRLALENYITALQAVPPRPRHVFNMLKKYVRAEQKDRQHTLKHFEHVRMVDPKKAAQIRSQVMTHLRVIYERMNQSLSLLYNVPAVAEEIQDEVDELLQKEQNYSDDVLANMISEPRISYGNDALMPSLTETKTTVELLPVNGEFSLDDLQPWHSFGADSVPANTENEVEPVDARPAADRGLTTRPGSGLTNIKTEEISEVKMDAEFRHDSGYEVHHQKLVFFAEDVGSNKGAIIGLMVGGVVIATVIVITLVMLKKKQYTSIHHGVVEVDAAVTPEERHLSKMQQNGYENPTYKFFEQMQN
# UniProt Q26239, sequence (whole entry, unmodified, looked up): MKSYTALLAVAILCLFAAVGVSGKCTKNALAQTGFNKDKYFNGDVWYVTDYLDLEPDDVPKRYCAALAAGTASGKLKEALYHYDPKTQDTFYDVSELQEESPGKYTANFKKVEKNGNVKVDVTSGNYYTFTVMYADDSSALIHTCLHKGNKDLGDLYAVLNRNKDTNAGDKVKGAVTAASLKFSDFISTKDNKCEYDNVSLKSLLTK
# UniProt Q06151, sequence (whole entry, unmodified, looked up): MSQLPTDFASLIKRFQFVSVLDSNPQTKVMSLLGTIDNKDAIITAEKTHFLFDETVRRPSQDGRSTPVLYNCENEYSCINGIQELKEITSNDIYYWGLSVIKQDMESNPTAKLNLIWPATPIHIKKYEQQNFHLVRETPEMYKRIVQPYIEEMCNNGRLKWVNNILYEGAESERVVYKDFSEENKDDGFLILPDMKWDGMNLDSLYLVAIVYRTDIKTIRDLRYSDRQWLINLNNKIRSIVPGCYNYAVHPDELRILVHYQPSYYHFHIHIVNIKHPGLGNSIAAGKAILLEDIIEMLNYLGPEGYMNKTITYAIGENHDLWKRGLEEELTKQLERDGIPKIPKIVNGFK
# UniProt P08191, sequence (whole entry, looked up): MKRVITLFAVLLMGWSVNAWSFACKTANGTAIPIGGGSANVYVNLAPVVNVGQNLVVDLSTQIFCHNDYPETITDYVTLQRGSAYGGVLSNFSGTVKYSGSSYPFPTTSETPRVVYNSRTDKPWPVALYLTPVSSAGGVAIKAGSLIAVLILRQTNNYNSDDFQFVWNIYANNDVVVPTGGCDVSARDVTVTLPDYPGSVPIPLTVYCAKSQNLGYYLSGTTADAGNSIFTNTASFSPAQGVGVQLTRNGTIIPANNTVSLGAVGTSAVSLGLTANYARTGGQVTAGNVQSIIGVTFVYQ
# UniProt P83410, sequence (whole entry, looked up): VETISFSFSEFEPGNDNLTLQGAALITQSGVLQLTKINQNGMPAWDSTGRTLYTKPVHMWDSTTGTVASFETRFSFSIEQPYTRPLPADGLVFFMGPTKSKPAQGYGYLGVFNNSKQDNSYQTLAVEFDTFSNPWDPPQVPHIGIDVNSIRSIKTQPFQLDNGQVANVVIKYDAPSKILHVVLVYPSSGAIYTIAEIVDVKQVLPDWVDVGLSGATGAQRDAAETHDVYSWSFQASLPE
# UniProt Q9BYF1, sequence (whole entry, looked up): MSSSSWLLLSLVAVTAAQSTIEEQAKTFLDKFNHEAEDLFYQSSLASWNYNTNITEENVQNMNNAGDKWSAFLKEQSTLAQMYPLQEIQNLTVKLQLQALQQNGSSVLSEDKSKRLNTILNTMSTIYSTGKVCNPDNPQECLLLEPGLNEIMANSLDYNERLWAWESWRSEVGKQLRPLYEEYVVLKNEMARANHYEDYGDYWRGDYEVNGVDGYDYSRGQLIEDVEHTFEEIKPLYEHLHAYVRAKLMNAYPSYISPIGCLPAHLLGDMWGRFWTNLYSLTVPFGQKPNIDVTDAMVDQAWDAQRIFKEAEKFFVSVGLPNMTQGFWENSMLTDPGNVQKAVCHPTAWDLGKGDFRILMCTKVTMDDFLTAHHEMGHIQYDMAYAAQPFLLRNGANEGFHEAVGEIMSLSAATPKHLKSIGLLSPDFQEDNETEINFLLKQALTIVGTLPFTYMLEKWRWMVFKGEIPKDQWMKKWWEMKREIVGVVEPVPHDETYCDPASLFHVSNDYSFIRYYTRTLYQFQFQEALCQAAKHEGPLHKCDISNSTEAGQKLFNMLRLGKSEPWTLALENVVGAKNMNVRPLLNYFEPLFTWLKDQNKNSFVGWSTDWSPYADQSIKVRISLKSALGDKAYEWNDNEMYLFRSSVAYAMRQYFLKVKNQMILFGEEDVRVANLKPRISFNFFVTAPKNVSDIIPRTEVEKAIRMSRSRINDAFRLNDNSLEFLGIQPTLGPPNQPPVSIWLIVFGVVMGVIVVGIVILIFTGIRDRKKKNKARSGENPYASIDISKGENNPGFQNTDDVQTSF
# UniProt O35082, sequence (whole entry, looked up): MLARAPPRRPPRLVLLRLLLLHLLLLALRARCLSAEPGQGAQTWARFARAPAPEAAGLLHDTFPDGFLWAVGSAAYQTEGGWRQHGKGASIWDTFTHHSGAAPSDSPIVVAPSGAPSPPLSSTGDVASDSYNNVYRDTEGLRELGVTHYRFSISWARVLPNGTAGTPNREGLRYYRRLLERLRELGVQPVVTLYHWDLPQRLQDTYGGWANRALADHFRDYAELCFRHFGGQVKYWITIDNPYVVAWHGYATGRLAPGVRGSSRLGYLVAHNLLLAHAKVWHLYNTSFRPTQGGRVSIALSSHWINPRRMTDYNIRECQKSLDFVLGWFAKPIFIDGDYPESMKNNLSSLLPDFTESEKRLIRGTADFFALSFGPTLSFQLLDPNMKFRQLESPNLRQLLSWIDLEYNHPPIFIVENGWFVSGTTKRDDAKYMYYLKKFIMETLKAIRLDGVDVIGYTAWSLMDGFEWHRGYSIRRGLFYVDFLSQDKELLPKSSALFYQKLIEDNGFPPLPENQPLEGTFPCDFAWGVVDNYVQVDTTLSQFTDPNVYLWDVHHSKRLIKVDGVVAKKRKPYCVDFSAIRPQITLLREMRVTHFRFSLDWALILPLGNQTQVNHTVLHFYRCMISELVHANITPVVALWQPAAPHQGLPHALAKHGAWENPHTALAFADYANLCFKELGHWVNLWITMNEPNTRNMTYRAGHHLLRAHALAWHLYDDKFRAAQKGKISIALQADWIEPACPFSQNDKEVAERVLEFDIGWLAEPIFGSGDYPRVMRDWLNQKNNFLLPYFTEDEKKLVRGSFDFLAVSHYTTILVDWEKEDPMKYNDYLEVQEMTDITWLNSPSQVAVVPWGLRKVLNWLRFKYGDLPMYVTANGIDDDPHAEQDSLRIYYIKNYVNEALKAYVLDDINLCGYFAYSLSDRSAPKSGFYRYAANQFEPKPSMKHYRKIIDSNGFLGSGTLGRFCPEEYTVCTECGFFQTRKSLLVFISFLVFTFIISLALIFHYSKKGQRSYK
# UniProt Q06520, sequence (whole entry, looked up): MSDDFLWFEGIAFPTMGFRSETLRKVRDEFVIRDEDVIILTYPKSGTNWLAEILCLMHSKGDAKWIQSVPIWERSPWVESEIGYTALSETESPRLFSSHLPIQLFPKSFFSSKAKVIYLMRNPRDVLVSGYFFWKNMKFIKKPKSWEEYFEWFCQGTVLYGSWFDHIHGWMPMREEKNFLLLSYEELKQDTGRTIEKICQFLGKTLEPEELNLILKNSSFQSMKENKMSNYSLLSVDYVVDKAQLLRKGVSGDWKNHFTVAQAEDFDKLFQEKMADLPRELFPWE
# UniProt Q9WYT0, sequence (whole entry, looked up): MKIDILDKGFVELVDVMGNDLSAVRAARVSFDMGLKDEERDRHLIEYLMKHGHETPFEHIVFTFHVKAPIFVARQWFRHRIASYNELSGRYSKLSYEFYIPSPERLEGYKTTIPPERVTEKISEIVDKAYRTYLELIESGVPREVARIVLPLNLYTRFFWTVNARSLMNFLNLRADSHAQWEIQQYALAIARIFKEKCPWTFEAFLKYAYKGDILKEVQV
Molecule,target or system,assay,test system,setting,quantity,result
CN(C)CCCC[C@H](N)C(=O)O,"Lethal(3)malignant brain tumor-like protein 1 (Homo sapiens, UniProt Q9Y468)",,,,Kd,> 250 µM
CC(=O)N[C@@H](C)C(=O)N[C@@H](CC(N)=O)C(=O)NCC(=O)N[C@@H](CC(N)=O)C(=O)N[C@@H](C)C(=O)N[C@@H](CCC(=O)O)C(=O)N[C@@H](CC(N)=O)C(=O)N[C@@H](CCC(=O)O)C(=O)N[C@@H](CCC(=O)O)C(=O)N[C@@H](CC(N)=O)C(=O)NCC(=O)N[C@@H](CCC(=O)O)C(=O)N[C@@H](CCC(N)=O)C(=O)N[C@@H](CCC(=O)O)C(=O)N[C@@H](C)C(=O)N[C@@H](CC(=O)O)C(=O)N[C@@H](CC(N)=O)C(=O)N[C@@H](CCC(=O)O)C(=O)N[C@H](C(=O)N[C@@H](CC(=O)O)C(N)=O)C(C)C,"KEAP1 (Homo sapiens, UniProt Q14145)","binding, ITC",,pH 7,Kd,11.6 µM
CCCCCCCO[C@@H]1C[C@@H](O)[C@@H](O)[C@H](O)[C@@H](CO)O1,"fimH (Escherichia coli K-12, UniProt P08191)","binding, competitive fluorescence polarization",,full-length FimH,Kd,> 500 µM
Nc1ncnc2c1ncn2[C@@H]1O[C@H](COP(=O)(O)OP(=O)(O)OP(=O)(O)O)[C@@H](O)[C@H]1O,"Protein kinase 9 (Plasmodium falciparum, UniProt Q8IEG4)","binding, competition on cpd-sepharose",HEK293 expressed GFP fusion,,Kd,380 µM
CCCCn1ccnc1,"Nitrophorin-1 (Rhodnius prolixus, UniProt Q26239, H82C)","binding, UV/Vis titration",,"pH 7.4, 25 °C, H60C mutant complex",Kd,7 ± 1e-06 µM
Nc1nc2c(ncn2C2OC3COP(=O)(O)OC4C(COP(=O)(O)OC3C2O)OC(n2cnc3c(=O)[nH]c(N)nc32)C4OC(=O)NCCCCCCNC(=O)c2ccc(-c3c4ccc(=O)cc-4oc4cc(O)ccc34)c(C(=O)O)c2)c(=O)[nH]1 (stereo not shown),"Transcriptional regulator BldD, C-terminal domain (Streptomyces venezuelae, UniProt F2RCL8, D116A)",fluorescence polarization,,"pH 7.5, 25 °C, motif 2 only",Kd,1.6 ± 0.5 µM
Nc1ncnc2c1ncn2[C@@H]1O[C@H](COP(=O)(O)OS(=O)(=O)O)[C@@H](OP(=O)(O)O)[C@H]1O,"SULT2A1 (Homo sapiens, UniProt Q06520)","binding, tryptophan fluorescence",,"pH 7.0, 37 °C, ligand-free enzyme",Kd,518 ± 91 µM
COC(=O)[C@H]1C(c2ccc(I)cc2)C[C@@H]2CC[C@H]1N2C (stereo partly shown),"SLC6A3 (Homo sapiens, UniProt Q01959)","binding, radioligand saturation binding",HEK293 hDAT membranes,"90 min, pH 7.4, room temperature",Kd,0.00171 ± 0.00023 µM
C=CC1=C(C)c2cc3[nH]c(cc4nc(cc5[nH]c(cc1n2)c(C)c5C=C)C(C)=C4CCC(=O)O)c(CCC(=O)O)c3C.[Fe+3],"Kelch protein K13 (Plasmodium falciparum, UniProt Q8IDQ2, C580Y)",,,,Kd,0.204 ± 0.0204 µM
Nc1ncnc2c1ncn2[C@@H]1O[C@H](COP(=O)(O)OP(=O)(O)OP(=O)(O)O)[C@@H](O)[C@H]1O,"matB (Rhodopseudomonas palustris, UniProt Q6ND88, C106A/K488A/Q457C/R286C)","binding, fluorescence titration",,"pH 7.0, 20 °C",Kd,6.4 ± 0.6 µM
O=c1ccn([C@H]2C[C@H](O)[C@@H](CO)O2)c(=O)[nH]1,"thyX (Thermotoga maritima, UniProt Q9WYT0)",,,,Kd,78 ± 5 µM
CC#Cc1cc2ccccc2c2ccccc12,CYP2A6,"binding, absorbance",,pH 7.4,Kd,13 µM
C[n+]1cn([C@@H]2O[C@H](COP(=O)(O)OP(=O)([O-])OP(=O)(O)OC[C@H]3O[C@@H](n4cnc5c(=O)[nH]c(N)nc54)[C@H](O)[C@@H]3O)[C@@H](O)[C@H]2O)c2nc(N)[nH]c(=O)c21,"m7GpppX diphosphatase (DCS1, Saccharomyces cerevisiae, UniProt Q06151, H268N)",NMR titration,,"closed site, H268N",Kd,0.068 µM
CC[N+](CC)(CCO)CCCc1ccccc1,potassium channel,steady-state block,Doryteuthis pealeii,"internal application, together with: membrane potential +100 mV",Kd,7.7 µM
cGMP,"Potassium/sodium hyperpolarization-activated cyclic nucleotide-gated channel 2, C-terminal region (Hcn2, Mus musculus, UniProt O88703)",isothermal titration calorimetry,,"25 °C, C-linker/CNBD tetramer, low-affinity site",Kd,6.13 µM
O=C(N[C@H](CO)[C@H](O)c1ccc([N+](=O)[O-])cc1)C(Cl)Cl,"Chloramphenicol acetyltransferase (cat, Escherichia coli, UniProt P62577)","ligand, native ESI-MS",,"first ligand binding, gas phase, together with: 200 mM ammonium acetate",Kd,~60 µM and 60 µM
CC(C)C[C@H](NC(=O)[C@H](C)NC(=O)[C@H](CCCNC(=N)N)NC(=O)[C@H](CC(C)C)NC(=O)[C@H](Cc1c[nH]c2ccccc12)NC(=O)[C@@H](N)CCCNC(=N)N)C(=O)N[C@@H](CCCNC(=N)N)C(=O)N[C@@H](Cc1ccc(O)cc1)C(=O)N1CCC[C@H]1C(N)=O,"GNAS, GDP-bound (Homo sapiens, UniProt P63092)",microscale thermophoresis,,,Kd,no binding
CSCC[C@H](NC(=O)[C@@H]1CCCN1)C(=O)N[C@@H](C)C(=O)N[C@@H](CO)C(=O)N[C@@H](CC(=O)O)C(=O)N1CCC[C@H]1C(=O)N[C@@H](CC(C)C)C(=O)NCC(=O)N[C@H](C(=O)N[C@H](C(=O)N[C@@H](CCCNC(=N)N)C(=O)N1CCC[C@H]1C(=O)N[C@@H](CCCNC(=N)N)C(=O)N[C@@H](C)C(=O)N[C@@H](CCCNC(=N)N)C(=O)N[C@@H](C)C(N)=O)C(C)C)C(C)C,"Klotho (Kl, Mus musculus, UniProt O35082)","binding, competitive BLI",,"30 °C, 30 min preincubation, together with: biotinylated peptide immobilized",Kd,6.5 ± 1.2 µM
CCCCCCCCCCCCCCCC(=O)N[C@@H](CCC(=O)O)C(=O)O,"Bifunctional cytochrome P450/NADPH--P450 reductase, heme domain (cyp102A1, Bacillus megaterium, UniProt P14779)","substrate binding, substrate, UV-vis spectral titration",,"pH 7.4, room temperature, wild-type heme domain",Kd,3.7 ± 0.13 µM
CC1(C)[C@@H](O[C@H]2O[C@H](C(=O)O)[C@@H](O)[C@H](O)[C@H]2O[C@@H]2O[C@H](C(=O)O)[C@@H](O)[C@H](O)[C@H]2O)CC[C@]2(C)[C@H]3C(=O)C=C4[C@@H]5C[C@@](C)(C(=O)O)CC[C@]5(C)CC[C@@]4(C)[C@]3(C)CC[C@@H]12,"ACE2 (Homo sapiens, UniProt Q9BYF1)","binding, SPR",,,Kd,4.39 µM
O=C(CC1NCCCC1O)Cn1cnc2cc(Br)c(Cl)cc2c1=O (stereo not shown),"EPRS1 (Homo sapiens, UniProt P07814)","binding, MST",,,Kd,0.0532 µM
C#Cc1ccc2ccc3ccccc3c2c1,CYP2A6,"binding, absorbance",,pH 7.4,Kd,3.3 µM
C=CC1=C(C)c2cc3[nH]c(cc4nc(cc5[nH]c(cc1n2)c(C)c5C=C)C(C)=C4CCC(=O)O)c(CCC(=O)O)c3C.[Fe+3],"Ferrichrome-binding lipoprotein FhuD (Listeria monocytogenes, UniProt Q8Y5U6)","binding, tryptophan fluorescence quenching",,,Kd,0.588 ± 0.079 µM
CSCC[C@H](NC(=O)[C@H](CO)NC(=O)[C@@H](NC(=O)[C@H](CCC(N)=O)NC(=O)[C@H](CCCCN)NC(=O)[C@H](CCCCN)NC(=O)[C@H](CCCCN)NC(=O)[C@H](CCCCN)NC(C)=O)[C@@H](C)O)C(=O)N[C@H](C(=O)N[C@@H](CC(=O)O)C(=O)N[C@@H](Cc1ccccc1)C(=O)N[C@@H](Cc1ccc(O)cc1)C(=O)N[C@@H](Cc1c[nH]cn1)C(=O)N[C@@H](CO)C(=O)N[C@@H](CCCCN)C(=O)N[C@@H](CCCCN)C(=O)N[C@@H](CCCCN)C(N)=O)[C@@H](C)O,"PCNA (Homo sapiens, UniProt P12004)","binding, ITC",,pH 7.4,Kd,0.087 µM
CC[N+](CC)(CC)CC(=O)Nc1c(C)cccc1C,"sodium channel (rat brain), batrachotoxin-modified","open channel block, blocker, planar lipid bilayer, single channel",,"high-Kd period, 0 mV",Kd,25500 µM
CCCCCCCCCC[N+](CC)(CC)CC,potassium channel,steady-state block,Doryteuthis pealeii,"internal application, together with: membrane potential +100 mV",Kd,3.7 µM
OC[C@H]1O[C@@H](O[C@H]2[C@H](O)[C@@H](O)[C@H](O)O[C@@H]2CO)[C@H](O)[C@@H](O)[C@H]1O,"Lectin (Erythrina crista-galli, UniProt P83410)",BLI competition,,"solution Kd, together with: LacNAc-biotin biosensor",Kd,320 µM
CC(=O)N[C@@H](C)C(=O)N[C@@H](Cc1ccccc1)C(=O)N[C@@H](CCCNC(=N)N)C(=O)N[C@@H](C)C(=O)N[C@@H](CC(=O)O)C(=O)N[C@H](C(=O)N[C@@H](CCCNC(=N)N)C(=O)N[C@@H](C)C(=O)N[C@@H](CCC(=O)O)C(=O)N[C@@H](CCCNC(=N)N)C(=O)N[C@@H](C)C(=O)N[C@@H](CCC(=O)O)C(N)=O)C(C)C,"Amyloid-beta precursor protein, Aβ40 fibrils (APP, Homo sapiens, UniProt P05067)","binding to Aβ40 fibrils, fluorescence polarization",,"24 h, pH 7.4, 25 °C, together with: 100 µM Aβ40 fibrils",Kd,25.1 µM
CCCCCCCCCC[N+](C)(C)c1ccccc1,potassium channel,steady-state block,Doryteuthis pealeii,"internal application, together with: membrane potential +100 mV",Kd,13.3 µM
O=Cc1ccc(CO)o1,"Hemoglobin subunit alpha, with beta chain (HBA1, Homo sapiens, UniProt P69905)","steady-state binding, cation-exchange HPLC",,37 °C,Kd,370 µM
CN[C@@](C)(C[18F])C(=O)O,,,"SCID mouse SK-OV-3 xenograft, muscle","30 min, post injection",tissue uptake,0.8 ± 0.2 %ID/g
CSCC[C@H](NC(C)=O)C(=O)N[C@@H](C)C(=O)N[C@@H](C)C(=O)N[C@H](C(=O)N[C@@H](C)C(=O)NCC(=O)N[C@@H](CC(C)C)C(=O)N[C@@H](Cc1ccc(O)cc1)C(=O)NCC(=O)N[C@@H](CC(C)C)C(=O)NCC(=O)N[C@@H](CCCCN)C(=O)N[C@@H](CCCCN)C(=O)N[C@@H](CCCNC(=N)N)C(=O)N[C@@H](CCC(N)=O)C(=O)N[C@@H](Cc1c[nH]cn1)C(=O)N[C@@H](CCCNC(=N)N)C(=O)N[C@@H](CCCCN)C(=O)N[C@@H](CCCCN)C(=O)N[C@@H](CCC(N)=O)C(N)=O)C(C)C,"Kcnma1 (Mus musculus, UniProt Q08460)","ion current, blocker, inside-out patch clamp",,120 mV,Kd,0.22 µM
OC[C@H]1OC(O)[C@H](O)[C@@H](O)[C@@H]1O (stereo partly shown),"hexokinase, Saccharomyces cerevisiae",differential scanning fluorimetry,,"pH 7.0, together with: 10 mM MgCl2",Kd,1120 ± 50 µM
RFDSDAENPRYEPQAPWMEQE,murine mAb 64-3-7 Fab,"binding, SPR",peptide,,Kd,0.127 ± 0.0014 µM
